Published values from different studies.
A part holds a random share of what one study measured. Changes are numbered by the printed parent chain.

Series 1
Target: Histone acetyltransferase KAT6A, both winged helices, GST fusion (KAT6A, Homo sapiens, UniProt Q92794, residues 1-181)
Method: protein binding microarray
Form: double-stranded DNA, one strand shown
Matrix: in vitro
Tested at: not given
Setting: 8-mer, flanks averaged, mean of 2 arrays, mostly near background
Baseline: not given
Reading: higher = stronger binding
Endpoint: E-score
Target sequence (chain): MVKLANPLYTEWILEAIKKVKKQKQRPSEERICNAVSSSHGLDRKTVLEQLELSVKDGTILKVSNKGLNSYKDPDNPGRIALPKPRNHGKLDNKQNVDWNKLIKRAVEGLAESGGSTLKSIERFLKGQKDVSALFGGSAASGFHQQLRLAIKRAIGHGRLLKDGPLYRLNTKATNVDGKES
GAGTAGAC: 0.00248
AGATATTA: -0.0138
ACGTAGTG: 0.0432
AATATTAT: -0.0802
GAAAGAAC: -0.0162
ACCTGCAA: -0.147
CAGGGTGA: -0.278
AGTAACAT: -0.0103
ACAAGCAC: 0.0945
GCTGCGCC: 0.0674
GAAAGGTA: -0.0757
GAGGCTGC: -0.259
GTACCAGA: -0.194
AAACATCT: 0.014
AGAGTATA: -0.111
TAGGGTAA: -0.117
TCCGAGCA: -0.01
AGAAGGAC: -0.201
GTCGCATA: 0.168
TTCTGCAA: 0.0735

Series 2
Target: RNA binding protein fox-1 homolog 2, RRM domain, GST-SBP tag (RBFOX2, Homo sapiens, UniProt O43251-10, residues 100-194)
Method: RNA Bind-n-Seq
Form: RNA
Matrix: in vitro
Tested at: 365 nM
Setting: natural RNA segment, single round, ends assumed
Baseline: no-protein control
Reading: higher = stronger binding
Endpoint: RBNS enrichment (R)
All sequences stand within: GGGAGUUCUACAGUCCGACGAUC … UGGAAUUCUCGGGUGCCAA
Target sequence (chain): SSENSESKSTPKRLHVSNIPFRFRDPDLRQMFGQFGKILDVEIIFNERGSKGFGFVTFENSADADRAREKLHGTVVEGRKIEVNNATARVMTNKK
AUGACUCUCUGCUAUUCAUGAAUCUUGCUAUUGCACAAACCCUAUCAAGAGCUGCUGCUUCCCUUCCAGCCAGAAAAGUGGUAAGCGGAGCAAGUGCCAAGCAGAACAGA: 0.557
CAGAUCUGCAGCCUCGGGGACUCCCAGGUACACAGCAUCCUACUGUAACCUUGGAAGCUGACCAAAACCUGUUUCUACUGAGAAGACAGAUACAUCCUUACCCCUAGAAG: 0.24
CCUCAGGUCCCAACUGAAUGUCUGCCAACCCCUGCUCAGGACACUCUUCUUUCCUGGGGCAAGCCAGGAGCUCUCAACAGAGGGAGGACUGGAGGGCAGAUGGAGAAAGC: 0.493
CCUUAAUAUUGCAUCUCACUCCCACCCUUAAAACCACAGAUUGCAAAGCAUAGCAUUUUAGCAUCAACUACAAUCAAAAGAGCGAUUUGCUGAAGGAAAAAUCGGACUGC: 0.774
UGUGAAAACAUUACAUACAUGUAUAUAUUUAGACAUGAGCUGCUGCUAUAUAUUGAAUGGGCCCUUUAGUUUUCUCUUAGUUCUGACCUGUAUAUAUUGCUUUAAUAGAG: 1.62
AGCAUCCUUGGUCAUCAUUGUCUCCUUCCCACCUGGCCCAGAGAUGCUUAAAUCCAAGUUGUUUCUCCAGCUGUCACCUCCCCCAGGAGAUCAGGAUUCCACUGACGUCC: 0.506
UGCCUUGCAGAUAUUUCGGUACCGCUGAGUUUUCUUUCUUUUCCCAAGUGGGAAGAAGGCACACCUAGCUUGGACCCACCCACAAGCUGCACUGUGUGACCUCUCUGUUG: 0.233
CAUAAUAAAUAGAUCUUAAACAUAGGAAAACCAUACUGUUCUGAUAAUAAAAUGCUUUCUAUGAAAUACGUUGCUUUUCUACCGAGUCAUUAUUUUAUUUAUUUAUUUUA: 0.929

Series 3
Target: CCNA1, cyclin fold, Cln2 fusion (human)
Method: yeast growth competition, sequencing
Matrix: yeast
Setting: weak parent motif
Baseline: not given
Reading: higher = stronger binding
Endpoint: normalised enrichment score
Starting sequence: CDKN1B docking peptide (human); PSACRNLFGPVDH
C4P: 0.143
A3P: 0.0327
N6I: 0.166
P10D: 0.487
C4A: 0.491
H13E: 0.365
P1R: 0.397
G9A: 0.462
V11G: 0.367
F8C: 0.13
C4Y: 0.33
P10M: 0.153
V11S: 0.448
L7V: 0.37
L7G: 0.271
V11L: 0.375
S2K: 0.545
A3Y: 0.269
R5K: 0.236
V11Y: 0.372
A3W: 0.379
F8K: 0.327
C4F: 0.13
P10A: 0.372
R5T: 0.123

Series 4
Target: Hepatocyte nuclear factor 3-alpha (Foxa1, Mus musculus, UniProt P35582, residues 1-468, full length assumed)
UniProt P35582, sequence (whole entry, looked up): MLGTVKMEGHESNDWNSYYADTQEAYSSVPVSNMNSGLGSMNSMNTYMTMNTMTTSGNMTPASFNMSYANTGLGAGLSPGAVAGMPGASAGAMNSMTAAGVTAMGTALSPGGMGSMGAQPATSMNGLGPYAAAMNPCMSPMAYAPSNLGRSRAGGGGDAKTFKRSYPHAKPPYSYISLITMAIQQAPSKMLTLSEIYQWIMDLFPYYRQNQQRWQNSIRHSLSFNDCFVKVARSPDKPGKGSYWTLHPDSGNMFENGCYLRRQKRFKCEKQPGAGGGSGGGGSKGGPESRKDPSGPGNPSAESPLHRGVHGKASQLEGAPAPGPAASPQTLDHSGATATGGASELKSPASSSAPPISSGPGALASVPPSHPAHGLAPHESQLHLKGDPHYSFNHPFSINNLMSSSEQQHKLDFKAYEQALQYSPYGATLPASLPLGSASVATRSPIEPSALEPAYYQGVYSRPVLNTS
Method: EMSA with sequencing
Form: double-stranded DNA, one strand shown
Matrix: in vitro
Tested at: 10 and 20 nM
Setting: whole designed probe, mean of two concentrations, ends assumed
Baseline: negative control set to 0
Reading: higher = stronger binding
Endpoint: normalised bound fraction
All sequences stand within: GTGAGCGGTGCCCATTGATGGGGAAC … TTTCACTGGGATCGTGGGGAC
ATCTTCCCCCTCTTCCTTGCCCCACCAGCTCACCTTCCCGGGTTATTTGCAGATAGGAAAATAAATAAAGCCGGCATTCGTTAACCCTCTTCTGGCGCAAACTGCTGTTTGCTCTGGTCCTTTGGCGACGCCAGGCTCCGGGAGAGCAGATGAATCATGAAGCACCGTGTCAGGGCCATGATCCGGGGTGGCC: 0.38 ratio
TTTTTTCTGTACAGGGAAAAATAGTGAATATTTCAAAATTGTGAAACAAAGAGTCTCTGTGGCGTTGCATAACAACTACTCATTAGACAATATGCAAACAAATGAGTGTGTCTGTGTTCCAATAAAACTGTATTTACAAAAGCAGAAGGCCACCCATGTGCCAATGTCCAAAGTTTCTCAACCAACCCCTGGT: 0.377 ratio
ACTCGTAGCAGTTGGAATCTTGATCTGTATAACATGCACCTTAAAAGGGCATGATCAAAACAGAAACAAATGTTTTTCTGTGTGACCCTCTCTGTTTACTCAGCTCCTAGAAAAAAAGCAGTTAACCTACCATGTCCATGCACTTAGTAGGGACCACCCTGGCATTTCACTCCATATTCCAGCCATTGTAGGG: 0.341 ratio
AGCATTATCAGCAGGGGCCAGGCTACTTGGCCCACATCTGTTTACCTATGTCCCAGGCCAGCCTGCACTCATTAGATCAGTGCAGCCATAATTTGTTTGCACAGGAGGTGGCAGAGTGTGTACTTGTGTACTTGACCTCAGACATCAAATACTTAAGTTTTGAAAGTACTGAACTGTGATGTCAGCTTGGTTT: 0.462 ratio
ATCTTCCCCCTCTTCCTTGCCCCACCAGCTCACCTACGGGGGTTATTTGCACAAAGGAAAATAAATAAAGCCGGCATTCGTTAACCCTCTTCTGGCGCAAACTGCTGTTTGCTCTGCATCTAACATGGTCCTTACGCGACGCCAGGCTCCGGGAGAGCAAAGCACCGTGTCAGGCGCATGATCCGGGGTGGCC: 0.381 ratio

For quick reference, copied from above (series 4):
ATCTTCCCCCTCTTCCTTGCCCCACCAGCTCACCTTCCCGGGTTATTTGCAGATAGGAAAATAAATAAAGCCGGCATTCGTTAACCCTCTTCTGGCGCAAACTGCTGTTTGCTCTGGTCCTTTGGCGACGCCAGGCTCCGGGAGAGCAGATGAATCATGAAGCACCGTGTCAGGGCCATGATCCGGGGTGGCC: 0.38 ratio
TTTTTTCTGTACAGGGAAAAATAGTGAATATTTCAAAATTGTGAAACAAAGAGTCTCTGTGGCGTTGCATAACAACTACTCATTAGACAATATGCAAACAAATGAGTGTGTCTGTGTTCCAATAAAACTGTATTTACAAAAGCAGAAGGCCACCCATGTGCCAATGTCCAAAGTTTCTCAACCAACCCCTGGT: 0.377 ratio
ACTCGTAGCAGTTGGAATCTTGATCTGTATAACATGCACCTTAAAAGGGCATGATCAAAACAGAAACAAATGTTTTTCTGTGTGACCCTCTCTGTTTACTCAGCTCCTAGAAAAAAAGCAGTTAACCTACCATGTCCATGCACTTAGTAGGGACCACCCTGGCATTTCACTCCATATTCCAGCCATTGTAGGG: 0.341 ratio
AGCATTATCAGCAGGGGCCAGGCTACTTGGCCCACATCTGTTTACCTATGTCCCAGGCCAGCCTGCACTCATTAGATCAGTGCAGCCATAATTTGTTTGCACAGGAGGTGGCAGAGTGTGTACTTGTGTACTTGACCTCAGACATCAAATACTTAAGTTTTGAAAGTACTGAACTGTGATGTCAGCTTGGTTT: 0.462 ratio
